Measurements pooled from the literature.
Each numbered part is a random draw from the data of one study; scales do not carry over between parts.

Set 1 — method: protein binding microarray; molecule type: double-stranded DNA, one strand shown; sample: in vitro; concentration: not given; reference: not given; direction: higher = stronger binding
Target: Histone acetyltransferase KAT6A, winged helix 2, GST fusion (KAT6A, Homo sapiens, UniProt Q92794, residues 85-181)
Notes: 8-mer, flanks averaged, mean of 2 arrays, mostly near background
Target sequence (chain): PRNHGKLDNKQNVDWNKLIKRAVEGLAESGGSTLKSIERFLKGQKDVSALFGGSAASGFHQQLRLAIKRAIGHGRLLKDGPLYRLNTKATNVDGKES
`AATCAATT` gave an E-score of 0.13.
The E-score of `TAAAGCGA` is reported as 0.0848.
`AGTATTCA` has an E-score of -0.0454.
`CTTGGGCA` gave an E-score of 0.0672.
With `ATGACGCG` the E-score was 0.0553.
With `ACCAGTTA` the E-score was -0.184.

Set 2 — method: RNA Bind-n-Seq; molecule type: RNA; sample: in vitro; concentration: 365 nM; reference: no-protein control; direction: higher = stronger binding
Target: RNA binding protein fox-1 homolog 2, RRM domain, GST-SBP tag (RBFOX2, Homo sapiens, UniProt O43251-10, residues 100-194)
Notes: natural RNA segment, single round, ends assumed
Constant ends, left off below: GGGAGUUCUACAGUCCGACGAUC … UGGAAUUCUCGGGUGCCAA
Residues (chain): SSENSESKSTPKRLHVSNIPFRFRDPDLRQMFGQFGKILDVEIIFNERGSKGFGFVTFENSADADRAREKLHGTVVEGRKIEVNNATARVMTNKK
For `AAGCAGUCAAGCCACAGAAACCCAGCAUGUCCCUGUCACAAUCUCAUGGGCACCUUGAUCAUGUCUUAACCUUCCCUUAACCUUGGGGCUCCCAAGCCAGAGUCAAGGUC`, “RBNS enrichment (R)” read 8.39.
`GGCAGGCUUUGACUGACCUCUCAUUCCCUUUGCACUGCUUCAGGUUAGUUCUAGUCCAUAAUGGCCUUUGAGCAGCAAGCUUUCAGAAGAUUAUAUUUGAGGAUUGUAGC`: “RBNS enrichment (R)” 0.679.
`ACACCAAGGGCUUUGCCCUGCGCUGCUUUGCCACUGCUGCUGUCCGCUCACUGUCCUGCCUGCUGUCCUCUACAGCUCCCUAUCCUUCCAUGUCUUUGGCCAUGUAGAUU`: “RBNS enrichment (R)” 1.85.
For `GCGUUUUCUCUGUCCUGCUGCUUCUUUUGGCCUCCUCGUUUUCCUUCUCUUUUUCGACAAUGGUAGACAUGAAUGAGAUAUUUAAAGUUCAUUGGAAAUCUUCUUCCCUA`, “RBNS enrichment (R)” read 0.291.
For `ACACAAGUCAUCCUGCCUGGCUGCAGUUAGCUGUCAUUGUCAUUGAAAAUCUUAGUGUCUCCUGGUGGAGGGGAAGGACCGGCUGCCUCACCCCACUCCCUGAUCUCACA`, “RBNS enrichment (R)” read 0.238.

Set 3 — method: competition protein-binding microarray; molecule type: double-stranded DNA, one strand shown; sample: in vitro; concentration: 2 µM; with: Pho4 competitor, 0.05 µM; direction: higher = stronger binding; constant ends, left off below: … GTCTTGATTCGCTTGACGCTGCTG
Target: Centromere-binding protein 1, full length, His-tagged (CBF1, Saccharomyces cerevisiae, UniProt P17106, residues 1-351)
Sequence of UniProt P17106 (whole entry, looked up): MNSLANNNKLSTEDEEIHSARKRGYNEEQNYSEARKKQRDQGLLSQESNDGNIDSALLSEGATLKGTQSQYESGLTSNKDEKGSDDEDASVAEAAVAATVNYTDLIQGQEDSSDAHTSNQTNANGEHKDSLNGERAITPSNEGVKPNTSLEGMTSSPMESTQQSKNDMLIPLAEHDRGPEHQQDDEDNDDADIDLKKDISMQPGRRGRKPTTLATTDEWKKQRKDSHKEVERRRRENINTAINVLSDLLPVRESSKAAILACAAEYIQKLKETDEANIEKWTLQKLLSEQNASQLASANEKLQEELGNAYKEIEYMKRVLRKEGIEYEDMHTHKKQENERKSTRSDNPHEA
Notes: whole 60-bp probe, lowest competitor level
For `CATACCCAACCTTGCAGGGTGGGTGAAGATATTTGT`, the fluorescence intensity was 58.8 a.u.
For `TTGGCAACTCTCTCCGTCATGACAACTACTCCGCGG`, the fluorescence intensity was 59.8 a.u.
The fluorescence intensity of `CTACGGAAAAGGCCACACTTTTTTTCTGCAAGAAAA` is reported as 89 a.u.
`CTAACGAAGGTTTGTATGGTGGGTGACAAGCCAAGT` gave a fluorescence intensity of 71.6 a.u.
`TGCGCAACAACTTGTCACAAGACTTTATGTCTAGAA` gave a fluorescence intensity of 194 a.u.
`AGATCAAAGTCCCATCACGGGAAGCGGACAACAATA` has a fluorescence intensity of 106 a.u.

Single results of other studies
For `PhoQ, residues 284 288 289 292 302 303 SLSVQF`, the fold induction was 2.89 (PhoP, residues 12 14 15 18 19 AGCRL (Escherichia coli, UniProt P23836); Sort-seq, item: YFP reporter; E. coli; PhoQ-PhoP variant library, with: 10 µM Mg2+; reference: high Mg2+ state, higher = stronger signaling).

Excerpt of the above (set 1):
With `ACCAGTTA` the E-score was -0.184.
`AGTATTCA` has an E-score of -0.0454.
